Published values gathered from unrelated publications.
Compare with care: the assays were run in different laboratories. Substitutions count along the parent as printed. ± gives the spread as reported.
mutY full length assumed E37S: mutY full length assumed E37S (Escherichia coli, UniProt P17802)
protein holo: protein holo (Bacillus clausii, UniProt A0A268NVG2)
T1: TIA1 RRM2-3, residues 93-274 (Homo sapiens); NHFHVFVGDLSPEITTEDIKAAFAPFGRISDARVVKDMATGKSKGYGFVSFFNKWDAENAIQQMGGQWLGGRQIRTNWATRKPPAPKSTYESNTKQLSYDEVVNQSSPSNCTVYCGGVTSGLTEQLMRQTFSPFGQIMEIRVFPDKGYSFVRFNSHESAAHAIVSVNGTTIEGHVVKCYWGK
P1: ITGA2 cytoplasmic domain peptide (Homo sapiens); WKLGFFKRKYEKM
P2: PRDX1 residues 1-199; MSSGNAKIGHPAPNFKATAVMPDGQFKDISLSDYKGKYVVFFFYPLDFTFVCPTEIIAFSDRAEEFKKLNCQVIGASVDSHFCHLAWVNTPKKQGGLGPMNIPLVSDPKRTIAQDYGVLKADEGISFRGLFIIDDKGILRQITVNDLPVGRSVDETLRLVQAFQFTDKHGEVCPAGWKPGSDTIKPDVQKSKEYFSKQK
Chain of UniProt Q96T21 (whole entry, unmodified, looked up): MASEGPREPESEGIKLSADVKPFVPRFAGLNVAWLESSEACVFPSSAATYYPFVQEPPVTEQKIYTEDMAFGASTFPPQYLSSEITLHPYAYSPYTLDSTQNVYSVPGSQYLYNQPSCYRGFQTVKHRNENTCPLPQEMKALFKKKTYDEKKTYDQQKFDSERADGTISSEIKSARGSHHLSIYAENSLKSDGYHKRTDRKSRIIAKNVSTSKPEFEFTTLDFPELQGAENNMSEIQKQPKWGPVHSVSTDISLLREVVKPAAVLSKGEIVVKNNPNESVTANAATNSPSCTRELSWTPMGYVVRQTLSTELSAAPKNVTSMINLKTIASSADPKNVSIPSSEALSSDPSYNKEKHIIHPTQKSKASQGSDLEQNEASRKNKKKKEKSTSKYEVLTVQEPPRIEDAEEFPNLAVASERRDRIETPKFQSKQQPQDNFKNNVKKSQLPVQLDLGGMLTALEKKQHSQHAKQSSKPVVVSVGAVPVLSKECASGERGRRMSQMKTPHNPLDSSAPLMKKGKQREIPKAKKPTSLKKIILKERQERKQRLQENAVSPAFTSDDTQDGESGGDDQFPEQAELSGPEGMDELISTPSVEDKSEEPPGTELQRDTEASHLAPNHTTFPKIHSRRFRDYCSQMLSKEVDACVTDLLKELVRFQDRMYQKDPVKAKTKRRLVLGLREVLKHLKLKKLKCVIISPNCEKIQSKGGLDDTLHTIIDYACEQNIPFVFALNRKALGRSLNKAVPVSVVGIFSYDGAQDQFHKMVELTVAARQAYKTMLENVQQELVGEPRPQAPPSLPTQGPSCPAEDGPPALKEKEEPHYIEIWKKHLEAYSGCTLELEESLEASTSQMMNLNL
Chain of UniProt P14780 (whole entry, looked up): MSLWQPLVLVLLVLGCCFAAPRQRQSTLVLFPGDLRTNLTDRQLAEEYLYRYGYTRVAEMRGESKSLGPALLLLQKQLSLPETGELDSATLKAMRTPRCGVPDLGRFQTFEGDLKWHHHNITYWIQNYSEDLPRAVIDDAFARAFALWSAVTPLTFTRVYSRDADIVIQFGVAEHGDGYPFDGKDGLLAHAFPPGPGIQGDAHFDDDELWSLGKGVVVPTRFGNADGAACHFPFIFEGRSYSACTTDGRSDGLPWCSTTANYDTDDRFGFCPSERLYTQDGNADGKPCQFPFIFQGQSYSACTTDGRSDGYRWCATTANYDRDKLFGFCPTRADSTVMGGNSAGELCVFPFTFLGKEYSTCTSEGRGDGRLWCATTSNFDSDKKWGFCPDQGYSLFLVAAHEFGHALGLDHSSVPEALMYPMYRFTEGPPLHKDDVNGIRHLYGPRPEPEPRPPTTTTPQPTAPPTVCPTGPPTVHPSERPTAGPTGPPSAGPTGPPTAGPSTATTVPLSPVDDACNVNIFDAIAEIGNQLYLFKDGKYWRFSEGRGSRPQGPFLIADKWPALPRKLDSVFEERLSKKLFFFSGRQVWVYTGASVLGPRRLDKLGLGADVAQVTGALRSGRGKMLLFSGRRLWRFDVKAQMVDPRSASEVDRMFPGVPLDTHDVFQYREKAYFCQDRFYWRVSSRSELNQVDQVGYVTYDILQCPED
Chain of UniProt Q80W65 (whole entry, looked up): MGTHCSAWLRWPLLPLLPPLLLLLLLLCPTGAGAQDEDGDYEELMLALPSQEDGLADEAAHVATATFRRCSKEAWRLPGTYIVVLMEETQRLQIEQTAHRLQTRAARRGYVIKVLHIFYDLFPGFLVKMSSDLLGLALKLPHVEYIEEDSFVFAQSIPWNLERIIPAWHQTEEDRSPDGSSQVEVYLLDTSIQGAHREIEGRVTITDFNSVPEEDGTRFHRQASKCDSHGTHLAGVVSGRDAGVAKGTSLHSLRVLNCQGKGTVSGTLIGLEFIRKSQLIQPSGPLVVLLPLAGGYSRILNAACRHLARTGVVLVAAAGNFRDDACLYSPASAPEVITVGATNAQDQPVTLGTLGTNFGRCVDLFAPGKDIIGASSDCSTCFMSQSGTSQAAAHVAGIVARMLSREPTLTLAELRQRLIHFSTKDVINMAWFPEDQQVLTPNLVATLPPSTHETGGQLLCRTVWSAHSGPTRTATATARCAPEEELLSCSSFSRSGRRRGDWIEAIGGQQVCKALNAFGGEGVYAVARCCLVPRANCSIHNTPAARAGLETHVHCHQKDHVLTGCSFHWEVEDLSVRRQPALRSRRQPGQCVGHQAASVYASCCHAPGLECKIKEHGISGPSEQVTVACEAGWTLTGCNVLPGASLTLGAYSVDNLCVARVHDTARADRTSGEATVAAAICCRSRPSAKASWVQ
Chain of UniProt P0DX76 (whole entry, looked up): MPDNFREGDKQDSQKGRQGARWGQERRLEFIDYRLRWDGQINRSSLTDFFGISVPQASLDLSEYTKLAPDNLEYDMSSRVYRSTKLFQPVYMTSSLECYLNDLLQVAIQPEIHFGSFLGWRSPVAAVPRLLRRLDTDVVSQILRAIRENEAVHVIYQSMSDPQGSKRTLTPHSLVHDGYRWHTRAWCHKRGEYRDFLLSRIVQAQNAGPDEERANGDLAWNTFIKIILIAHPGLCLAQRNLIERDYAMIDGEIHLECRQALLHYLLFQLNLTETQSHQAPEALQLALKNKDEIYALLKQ

Molecule	target or system	test	system	conditions	scale	endpoint	result
DNA 1 CGATCATGGAGGCTAGCGCTCCCGTTACAG / DNA 2 CTGTAACGGGAGCGATAGCCTCCATGATCG (dsDNA; 30 bp, central 8-oxoguanine:A)	mutY full length assumed E37S	EMSA	double-stranded DNA	–	–	Kd	< 0.003 nM
UGGAGCCUUCCACCCCGGCACUCAUGACGGUCUGCCUGAAAACCAGCCCGCUGGUGGGGCAGUCCCGAGGACCUGGCGUGCAUCCCCGCCGGAGGAAGGUCCA (structured RNA)	SECISBP2 344-854 I535S/I536V/L537R/K538V/E539Y (Homo sapiens, UniProt Q96T21)	EMSA	folded RNA	–	–	Kd	600 ± 45 nM
CTGACCAAAACAAAAAATCTCCAAAAAACTCGAAAAAAGTGGTCAGTT (dsDNA)	protein holo	fluorescence titration	double-stranded DNA, one strand shown	Mg2+ 5 mM, apparent, Hill fit, with: PLP	–	Kd	25.8 ± 7 nM
GUUAUAUUCUCCUUUC (ssRNA)	T1, TIA1 RRM2-3, residues 93-274 (Homo sapiens)	ITC	RNA	reverse titration	–	Kd	216 ± 47.6 nM
P1 K7A R8A	RASA1 GAP domain 714-1047 (Homo sapiens)	fluorescence polarisation	–	–	reference: unchanged protein, higher = more binding	relative binding	13
CTGACCTCATCATTTTCTTAAAAACTGACACTTACAATGTGGTCAGTT (dsDNA)	protein holo K126Q/K129Q (Bacillus clausii, UniProt A0A268NVG2)	fluorescence titration	double-stranded DNA, one strand shown	Mg2+ 5 mM, apparent, Hill fit, with: PLP	–	Kd	36.6 ± 1.7 nM
GGGGGGUUUUUUUUUUUUUUUUUGGGGG (ssRNA)	TIAL1 8-175 (Homo sapiens, UniProt Q01085)	SPR	RNA	–	–	Kd	1200 ± 20 nM
P1 W1A K2A	RASA1 GAP domain 714-1047 (Homo sapiens)	fluorescence polarisation	–	–	reference: unchanged protein, higher = more binding	relative binding	24
TTTTTTTTTTTTTTTTTTTT (ssDNA)	TIAL1 96-175 (Homo sapiens, UniProt Q01085)	SPR	single-stranded DNA	–	–	Kd	15200 ± 350 nM
AACGUACUUUAAGGCCUAUUGAGGAAACUC (ssDNA; all dC Pp-dC; all dU Nap-dU)	Pcsk9 35-694 (Mus musculus, UniProt Q80W65)	filter binding	–	–	–	Kd	0.077 nM
AAAA (ssRNA)	rnr full length assumed R572K (Escherichia coli, UniProt P21499)	filter binding	RNA	EDTA present	–	Kd	5800 ± 1500 nM
DNA 1 CGATCATGGAGGCTAGCGCTCCCGTTACAG / DNA 2 CTGTAACGGGAGCGATAGCCTCCATGATCG (dsDNA; 30 bp, central 9-deazaguanine:A)	mutY full length assumed E37S	EMSA	double-stranded DNA	–	–	Kd	0.6 ± 0.4 nM
P2 T49A	DOK3 fragment	pull-down	–	without SAB, read off a plot	higher = more binding	IP/Input	0.13 IP/Input
CCCCCCC (ssDNA)	capW 1-299 (Escherichia coli, UniProt P0DX76)	fluorescence polarization	single-stranded DNA	range over sequences	–	Kd	9540 nM
UGGAGCCUUCCACCCCGGCACUCAUGACGGUCUGCCGAAAUCCUCGAUGGCAGUCCCGAGGACCUGGCGUGCAUCCCCGCCGGAGGAAGGUCCA (structured RNA)	Sbp2 full length assumed (Drosophila melanogaster, UniProt Q9VSH1)	EMSA	folded RNA	–	–	Kd	230 ± 30 nM
CGGGGCGGGCCGGGGGCGGGGT (G-quadruplex DNA; parallel in K+)	APEX1 full length assumed D210A (Homo sapiens, UniProt P27695)	fluorescence anisotropy	folded DNA	K+ 140 mM	–	Kd	20 nM
DNA 1 CGATCATGGAGGCTAGCGCTCCCGTTACAG / DNA 2 CTGTAACGGGAGCGATAGCCTCCATGATCG (dsDNA; 30 bp, central 7-methyl-8-oxoguanine:A)	mutY full length assumed E37S	EMSA	double-stranded DNA	–	–	Kd	0.02 ± 0.01 nM
TACGGCCGCACGAAAAGGTGCCCCATAACTCAATGCCGTA (ssDNA)	MMP9 20-707 (Homo sapiens, UniProt P14780)	SPR	single-stranded DNA	–	–	Kd	13.4 nM
DNA 1 CGATCATGGAGGCTAGCGCTCCCGTTACAG / DNA 2 CTGTAACGGGAGCGATAGCCTCCATGATCG (dsDNA; 30 bp, central G:A mismatch)	mutY full length assumed E37S	EMSA	double-stranded DNA	–	–	Kd	0.24 ± 0.08 nM
GCAGCCCAUGAUGGCUGAAUCCUGAAAACCAGCCCGCUGGUGGGGGUCCAGCUUGAUGUCUUUGCAGC (structured RNA)	SECISBP2 (Homo sapiens, UniProt Q96T21)	EMSA	folded RNA	–	–	Kd	470 ± 40 nM
GCAGCCCAUGAUGGGUGAAUCCGAAAUCCUCGAUGGGUCCAGCUUGAUGUCUUUGCAGC (structured RNA; internal loop hairpin)	SECISBP2 515-854 (Homo sapiens, UniProt Q96T21)	EMSA	folded RNA	–	–	Kd	780 nM
RNA 1 GGAGGAUGUUAAUUGGCGUGUCUUGUCUGCAACGGUAUUC / RNA 2 GAAUACCGUUGCAGACAAGACACGCCAAUUAACAUCCUCC (dsRNA)	EIF2AK2 1-551 I102A (Homo sapiens, UniProt P19525)	sedimentation velocity AUC	double-stranded RNA	Kd1 first PKR	–	Kd	184 nM
GCAGCCCAUGAUGGCUGAAUCCGAAAUCCUCGAUGGGUCCAGCUUGAUGUCUUUGCAGC (structured RNA)	Sbp2 full length assumed S95I/V96I/R97L/V98K/Y99E (Drosophila melanogaster, UniProt Q9VSH1)	EMSA	folded RNA	–	–	Kd	200 ± 10 nM
CTGACCTCATCATCTCCCTACACACTGACACTTACAATGTGGTCAGTT (dsDNA)	protein holo	fluorescence titration	double-stranded DNA, one strand shown	Mg2+ 5 mM, apparent, Hill fit, with: PLP	–	Kd	22.8 ± 2.7 nM

Some of these lines once more:
Molecule	target or system	test	system	conditions	scale	endpoint	result
TACGGCCGCACGAAAAGGTGCCCCATAACTCAATGCCGTA (ssDNA)	MMP9 20-707 (Homo sapiens, UniProt P14780)	SPR	single-stranded DNA	–	–	Kd	13.4 nM
CCCCCCC (ssDNA)	capW 1-299 (Escherichia coli, UniProt P0DX76)	fluorescence polarization	single-stranded DNA	range over sequences	–	Kd	9540 nM
